Measured values of several laboratories.
Parts stem from different laboratories: compare values within a part only. Several values in a cell are separate wells, animals, samples, runs or records.
UniProt P08912, sequence (whole entry, looked up): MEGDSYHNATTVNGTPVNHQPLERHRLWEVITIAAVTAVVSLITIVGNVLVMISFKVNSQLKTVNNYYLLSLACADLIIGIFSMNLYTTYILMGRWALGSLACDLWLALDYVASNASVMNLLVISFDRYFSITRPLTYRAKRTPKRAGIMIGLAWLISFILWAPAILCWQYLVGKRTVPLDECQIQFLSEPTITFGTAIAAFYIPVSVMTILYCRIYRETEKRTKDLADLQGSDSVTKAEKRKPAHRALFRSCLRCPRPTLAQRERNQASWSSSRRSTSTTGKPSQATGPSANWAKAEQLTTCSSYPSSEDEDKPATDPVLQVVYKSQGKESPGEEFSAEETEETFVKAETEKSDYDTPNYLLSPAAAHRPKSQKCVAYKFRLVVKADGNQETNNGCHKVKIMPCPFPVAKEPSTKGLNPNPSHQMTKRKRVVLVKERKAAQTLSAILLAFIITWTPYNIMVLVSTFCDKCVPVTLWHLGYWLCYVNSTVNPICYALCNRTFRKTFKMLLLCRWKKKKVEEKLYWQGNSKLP
UniProt P28566, sequence (whole entry, looked up): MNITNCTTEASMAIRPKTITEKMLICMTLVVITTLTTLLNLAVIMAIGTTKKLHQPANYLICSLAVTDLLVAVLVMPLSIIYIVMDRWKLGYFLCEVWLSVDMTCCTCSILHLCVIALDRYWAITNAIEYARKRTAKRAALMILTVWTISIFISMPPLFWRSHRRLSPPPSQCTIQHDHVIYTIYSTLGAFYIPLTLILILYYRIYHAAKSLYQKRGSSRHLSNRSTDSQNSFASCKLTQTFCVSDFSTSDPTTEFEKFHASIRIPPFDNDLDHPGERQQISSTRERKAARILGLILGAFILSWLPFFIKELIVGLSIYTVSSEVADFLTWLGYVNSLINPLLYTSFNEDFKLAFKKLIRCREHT
UniProt P43220, sequence (whole entry, looked up): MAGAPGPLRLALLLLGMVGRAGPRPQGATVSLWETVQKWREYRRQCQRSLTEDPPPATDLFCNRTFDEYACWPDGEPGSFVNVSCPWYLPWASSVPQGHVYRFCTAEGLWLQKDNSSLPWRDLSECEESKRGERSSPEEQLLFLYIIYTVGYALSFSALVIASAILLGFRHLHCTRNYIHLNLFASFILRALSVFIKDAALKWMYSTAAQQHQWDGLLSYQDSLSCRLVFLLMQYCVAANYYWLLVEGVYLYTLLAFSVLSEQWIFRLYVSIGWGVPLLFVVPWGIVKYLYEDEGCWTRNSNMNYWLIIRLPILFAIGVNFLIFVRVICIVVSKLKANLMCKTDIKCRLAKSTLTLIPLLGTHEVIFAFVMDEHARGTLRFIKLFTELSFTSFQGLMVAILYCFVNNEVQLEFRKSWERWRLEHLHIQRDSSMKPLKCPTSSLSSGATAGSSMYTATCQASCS
UniProt P55085, sequence (whole entry, looked up): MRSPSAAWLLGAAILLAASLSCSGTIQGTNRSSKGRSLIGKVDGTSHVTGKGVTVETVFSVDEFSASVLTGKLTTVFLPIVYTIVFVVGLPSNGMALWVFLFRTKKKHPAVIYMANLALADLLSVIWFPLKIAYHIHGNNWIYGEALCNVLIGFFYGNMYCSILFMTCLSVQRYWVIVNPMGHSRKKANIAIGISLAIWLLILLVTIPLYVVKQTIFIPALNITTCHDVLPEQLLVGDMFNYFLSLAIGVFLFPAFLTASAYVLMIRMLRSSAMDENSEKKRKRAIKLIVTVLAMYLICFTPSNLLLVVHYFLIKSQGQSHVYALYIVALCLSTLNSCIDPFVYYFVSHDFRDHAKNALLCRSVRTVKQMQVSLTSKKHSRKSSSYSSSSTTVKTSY
UniProt Q9BVS4, sequence (whole entry, looked up): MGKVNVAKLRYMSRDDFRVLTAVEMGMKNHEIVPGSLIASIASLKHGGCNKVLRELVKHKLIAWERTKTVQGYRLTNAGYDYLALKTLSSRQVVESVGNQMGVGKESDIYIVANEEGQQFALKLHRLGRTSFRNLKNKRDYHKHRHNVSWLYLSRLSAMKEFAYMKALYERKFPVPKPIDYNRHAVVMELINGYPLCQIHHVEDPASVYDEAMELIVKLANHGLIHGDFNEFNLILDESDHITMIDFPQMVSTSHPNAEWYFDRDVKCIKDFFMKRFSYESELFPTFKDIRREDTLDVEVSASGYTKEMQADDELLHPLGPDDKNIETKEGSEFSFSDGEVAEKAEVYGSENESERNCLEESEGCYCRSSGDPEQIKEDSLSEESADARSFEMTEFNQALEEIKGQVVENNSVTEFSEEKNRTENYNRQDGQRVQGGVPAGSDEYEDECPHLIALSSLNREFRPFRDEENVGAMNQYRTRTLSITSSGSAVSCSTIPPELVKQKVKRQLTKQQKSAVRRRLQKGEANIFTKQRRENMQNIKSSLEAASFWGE
UniProt P22607, sequence (whole entry, unmodified, looked up): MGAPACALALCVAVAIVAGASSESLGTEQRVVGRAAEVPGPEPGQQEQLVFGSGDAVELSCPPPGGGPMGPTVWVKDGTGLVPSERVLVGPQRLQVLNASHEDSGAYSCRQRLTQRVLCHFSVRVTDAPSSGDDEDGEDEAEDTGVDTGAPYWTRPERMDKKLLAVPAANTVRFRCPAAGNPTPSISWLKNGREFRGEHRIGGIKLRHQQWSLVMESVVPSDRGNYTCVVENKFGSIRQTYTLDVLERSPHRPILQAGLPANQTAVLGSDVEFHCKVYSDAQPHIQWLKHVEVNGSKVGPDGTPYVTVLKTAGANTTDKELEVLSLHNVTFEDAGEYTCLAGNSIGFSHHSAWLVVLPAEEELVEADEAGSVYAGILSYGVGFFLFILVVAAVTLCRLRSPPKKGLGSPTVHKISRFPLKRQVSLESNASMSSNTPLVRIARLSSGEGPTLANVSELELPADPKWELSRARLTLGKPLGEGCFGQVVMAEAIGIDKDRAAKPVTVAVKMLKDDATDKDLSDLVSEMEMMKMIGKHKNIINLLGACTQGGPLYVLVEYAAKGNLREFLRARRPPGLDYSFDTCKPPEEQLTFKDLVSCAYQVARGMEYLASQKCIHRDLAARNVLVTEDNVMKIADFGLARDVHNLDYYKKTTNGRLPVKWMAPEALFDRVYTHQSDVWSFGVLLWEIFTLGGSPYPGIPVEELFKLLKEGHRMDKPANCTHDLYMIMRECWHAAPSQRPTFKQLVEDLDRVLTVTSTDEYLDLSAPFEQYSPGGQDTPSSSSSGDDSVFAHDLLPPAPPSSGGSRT
UniProt P54760, sequence (whole entry, looked up): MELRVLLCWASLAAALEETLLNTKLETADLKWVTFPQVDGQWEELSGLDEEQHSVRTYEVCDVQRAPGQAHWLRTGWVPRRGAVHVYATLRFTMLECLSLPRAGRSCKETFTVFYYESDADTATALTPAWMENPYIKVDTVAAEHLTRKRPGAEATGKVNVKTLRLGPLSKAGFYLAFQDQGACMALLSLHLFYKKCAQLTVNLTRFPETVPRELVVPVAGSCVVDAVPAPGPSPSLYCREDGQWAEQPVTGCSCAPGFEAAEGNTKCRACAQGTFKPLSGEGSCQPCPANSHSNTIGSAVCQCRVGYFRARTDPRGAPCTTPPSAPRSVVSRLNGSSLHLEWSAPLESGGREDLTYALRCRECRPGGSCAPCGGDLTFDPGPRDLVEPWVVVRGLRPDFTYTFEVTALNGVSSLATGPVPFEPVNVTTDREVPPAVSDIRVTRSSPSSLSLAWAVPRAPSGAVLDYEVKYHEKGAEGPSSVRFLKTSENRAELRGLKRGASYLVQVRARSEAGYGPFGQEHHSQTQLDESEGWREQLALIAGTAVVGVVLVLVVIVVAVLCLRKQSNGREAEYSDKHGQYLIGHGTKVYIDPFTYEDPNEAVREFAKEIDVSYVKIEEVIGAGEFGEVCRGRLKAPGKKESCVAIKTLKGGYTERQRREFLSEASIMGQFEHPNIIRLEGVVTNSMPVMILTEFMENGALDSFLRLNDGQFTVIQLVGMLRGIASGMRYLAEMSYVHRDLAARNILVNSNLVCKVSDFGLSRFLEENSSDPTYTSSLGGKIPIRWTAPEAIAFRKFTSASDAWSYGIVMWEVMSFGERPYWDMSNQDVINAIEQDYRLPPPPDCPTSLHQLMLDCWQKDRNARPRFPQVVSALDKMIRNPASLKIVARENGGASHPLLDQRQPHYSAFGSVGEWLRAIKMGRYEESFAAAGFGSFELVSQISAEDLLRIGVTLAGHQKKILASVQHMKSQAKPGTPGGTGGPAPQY
UniProt P54646, sequence (whole entry, looked up): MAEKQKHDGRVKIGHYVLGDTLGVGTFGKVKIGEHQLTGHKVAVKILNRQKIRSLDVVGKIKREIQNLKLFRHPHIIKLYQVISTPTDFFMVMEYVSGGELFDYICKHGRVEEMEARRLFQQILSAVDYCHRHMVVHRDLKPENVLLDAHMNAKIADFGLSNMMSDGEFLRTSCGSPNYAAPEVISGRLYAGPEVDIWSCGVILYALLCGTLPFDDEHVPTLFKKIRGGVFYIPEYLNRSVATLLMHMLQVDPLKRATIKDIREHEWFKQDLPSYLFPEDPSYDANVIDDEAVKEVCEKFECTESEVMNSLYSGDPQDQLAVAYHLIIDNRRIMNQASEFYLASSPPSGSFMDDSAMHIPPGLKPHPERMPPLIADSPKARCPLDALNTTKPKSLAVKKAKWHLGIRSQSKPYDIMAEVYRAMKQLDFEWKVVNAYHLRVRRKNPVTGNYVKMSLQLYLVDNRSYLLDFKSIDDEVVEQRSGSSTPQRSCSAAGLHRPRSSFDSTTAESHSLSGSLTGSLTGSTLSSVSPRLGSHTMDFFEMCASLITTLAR
UniProt P47211, sequence (whole entry, looked up): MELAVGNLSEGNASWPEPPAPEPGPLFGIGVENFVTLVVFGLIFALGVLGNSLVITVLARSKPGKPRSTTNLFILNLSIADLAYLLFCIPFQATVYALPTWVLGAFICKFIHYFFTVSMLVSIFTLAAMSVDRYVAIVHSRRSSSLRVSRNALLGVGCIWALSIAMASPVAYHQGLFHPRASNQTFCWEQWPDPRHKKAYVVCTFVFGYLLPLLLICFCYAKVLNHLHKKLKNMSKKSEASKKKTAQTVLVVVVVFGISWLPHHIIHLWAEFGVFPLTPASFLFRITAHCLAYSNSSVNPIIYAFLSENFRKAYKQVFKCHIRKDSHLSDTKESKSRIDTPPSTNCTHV

Block 1
SMILES: NC(N)=NC(=O)c1nc(Cl)c(N2CCCCCC2)nc1N
Effect on: β-arrestin recruitment
Mode: agonist
Method: PRESTO-Tango
Concentration: 10 µM
Reference: untreated
target | fold over basal
Metabotropic glutamate receptor 6 (Homo sapiens, UniProt O15303) | 0.88 fold
GALR1 (Homo sapiens, UniProt P47211) | 0.82 fold
GLP2R (Homo sapiens, UniProt O95838) | 0.51 fold
HTR6 (Homo sapiens, UniProt P50406) | 0.68
HTR1E (Homo sapiens, UniProt P28566) | 1.28
GLP1R (Homo sapiens, UniProt P43220) | 0.35 fold
CHRM5 (Homo sapiens, UniProt P08912) | 1.08
F2RL1 (Homo sapiens, UniProt P55085) | 0.81

Block 2
SMILES: CC(C)S(=O)(=O)c1ccc2nccc(Nc3ccc4scnc4c3)c2c1
Cell line: L929
Effect on: caspase activity
Method: Ac-DEVD-pNA absorbance
Direction: higher = more activity
concentration | time | caspase-3 activity
5 µM | 0 h | 0.015 a.u. and -0.0035 a.u. and 0.011 a.u. and 0.0075 a.u.
10 µM | 1 h | 0.035 a.u. and 0.016 a.u. and 0.079 a.u. and 0.072 a.u.
5 µM | 4 h | 0.104 a.u. and 0.099 a.u. and 0.064 a.u. and 0.097 a.u.

Block 3
SMILES: CN(C(=O)c1ccccc1)c1cc(N(C)c2ccc3c(c2)CCc2ccc(C(=O)NCCN4CCOCC4)cc2C3=O)ccc1F
Effect on: cell-free assay
Method: competition with immobilised ligand
Concentration: 1 µM
target | remaining binding
ACVR1 (Homo sapiens, UniProt Q04771) | 100%
EPHB4 (Homo sapiens, UniProt P54760) | 96%
EPHA3 (Homo sapiens, UniProt P29320) | 85%
MAPK7 (Homo sapiens, UniProt Q13164) | 100%
FGFR3 (Homo sapiens, UniProt P22607, G697C) | 80%
RIOK2 (Homo sapiens, UniProt Q9BVS4) | 100%
PRKAA2 (Homo sapiens, UniProt P54646) | 100%
PIK3CG (Homo sapiens, UniProt P48736) | 77%

Mixed results
SMILES | target | effect on | mode | method | concentration | endpoint | value
Cn1cnc2cc3c(Nc4cccc(Br)c4)ncnc3cc21 | Dual specificity tyrosine-phosphorylation-regulated kinase 1B (DYRK1B, Homo sapiens, UniProt Q9Y463) | enzyme activity | inhibitor | radiometric | 0.5 µM | remaining activity | 98.1%

For quick reference, copied from above (block 3):
target | remaining binding
RIOK2 (Homo sapiens, UniProt Q9BVS4) | 100%
PRKAA2 (Homo sapiens, UniProt P54646) | 100%
